Published values gathered from unrelated publications.
Values joined by “and” are separate records of one study, mostly repeats; a detail may differ. ± gives the spread as reported.
Fibroin-modulator-binding protein-1: Fibroin-modulator-binding protein-1 99-193 (Bombyx mori, UniProt Q5FBS0)

| Molecule | target or system | test | test system | setting | scale | endpoint | value |
| --- | --- | --- | --- | --- | --- | --- | --- |
| maraviroc | HIV-1 ADA | viral replication, qPCR | HIV-infected mice, brain | ip, 120 mg/kg twice daily, 3 weeks post-infection, normalized to CD45+ cells | reference: untreated HIV-infected mice | HIV-1 gag decrease | 336 fold |
| GLLEWVSMV | Jurkat T cells expressing 1G4 TCR | NFAT-eGFP reporter, flow cytometry | peptide | concentration not given, HLA-A*02:01 NY-ESO system | – | reporter activation | 0.24% |
| Peginesatide | UT7/EPO | tyrosine phosphorylation, LC-MS/MS phosphoproteomics, trypsin, refers to: GAB1 tyrosine 627 | – | 10 nM, 15 min, together with: 10 U/mL EPO | reference: vehicle | phosphorylation level | 10.6 fold |
| GSGAGIESNV | human MAGI1-2/6 PDZ construct (MBP fusion) | automated holdup | peptide, crude extract | concentration not given, corrected by standard peak, unit not given | reference: biotin control resin, higher = stronger binding | binding intensity | -0.0908 |
| colistin | Pseudomonas aeruginosa | – | clinical isolate RKI 462/13 | – | – | MIC | ≤ 1 µg/mL |
| TCP-1 alpha | – | co-immunoprecipitation | human RBC membrane | DSSO crosslinker, unit not given, together with: Band 3 peptide 1-56 bait | reference: negative control | co-IP enrichment | 17.5 |
| GLFQWIVQA | Jurkat T cells expressing 1G4 TCR | NFAT-eGFP reporter, flow cytometry | peptide | concentration not given, HLA-A*02:01 NY-ESO system | – | reporter activation | 0.22% |
| GSGAGSETVV | human MAGI1-2/6 PDZ construct (MBP fusion) | surface plasmon resonance | peptide | concentration not given | higher = stronger binding | normalised SPR binding response | 19.4 normalised RU |
| triosephosphate isomerase | – | co-immunoprecipitation | human RBC cytosol | DSSO crosslinker, unit not given, together with: Band 3 peptide 1-56 bait | reference: negative control | co-IP enrichment | 572 |
| TASPAKETSF | human MAGI1-2/6 PDZ construct (MBP fusion) | surface plasmon resonance | peptide | concentration not given | higher = stronger binding | normalised SPR binding response | 0 normalised RU |
| GCAGGCAGGCAG (dsDNA) | Fibroin-modulator-binding protein-1 | ITC | double-stranded DNA, one strand shown | – | – | Kd | 10.8 µM |
| human delta-aminolevulinic acid dehydratase | – | co-immunoprecipitation | human RBC membrane | DSSO crosslinker, unit not given, together with: Band 3 peptide 1-56 bait | reference: negative control | co-IP enrichment | 28.5 |
| ALMTWVTQV | Jurkat T cells expressing 1G4 TCR | NFAT-eGFP reporter, fluorescence microscopy | peptide | concentration not given, HLA-A*02:01 NY-ESO system | – | reporter activation | 22.9% |
| human complement C3 | – | co-immunoprecipitation | human RBC membrane | DMTMM crosslinker, unit not given, together with: Band 3 peptide 1-56 bait | reference: negative control | co-IP enrichment | 0 |
| VQLIMQLMPFG | HLA class I histocompatibility antigen, A alpha chain, allele A*24:02 (Homo sapiens, UniProt P04439) | conformational ELISA | peptide | concentration not given | reference: positive control peptide, direction not given | binding score | 9.1% |
| GLGQWIAQA | Jurkat T cells expressing 1G4 TCR | NFAT-eGFP reporter, flow cytometry | peptide | concentration not given, HLA-A*02:01 NY-ESO system | – | reporter activation | 0.22% |
| MTVCNASQRQAHAQATAVSL | H2126 | phage binding | peptide | – | reference: targeting over control phage | selectivity ratio | 7.1 |
| GEMVGQARILAQATSDLVNAIKDA | vinculin head domain Vd1 | complex rupture, AFM single-molecule force spectroscopy | peptide | single traces, C-terminal pulling, 800 nm/s | – | rupture force FWHM lower side | 20.9 pN |
| cotadutide | – | metabolomics, refers to: hepatic tyrosine | ob/ob mice on AMLN diet, NASH model, liver | dose not given | – | metabolite level | 1.03 ± 0.05 scaled intensity |
| USP14 | – | co-immunoprecipitation | human RBC membrane | DMTMM crosslinker, unit not given, together with: Band 3 peptide 1-56 bait | reference: negative control | co-IP enrichment | 32.4 |

| Molecule | target or system | test | test system | setting | scale | endpoint | value |
| --- | --- | --- | --- | --- | --- | --- | --- |
| KDECVIATEV | human MAGI1-2/6 PDZ construct (MBP fusion) | automated holdup | peptide, crude extract | concentration not given, uncorrected, unit not given | reference: biotin control resin, higher = stronger binding | binding intensity | 0.0745 |
| GLLEWTDRV | Jurkat T cells expressing 1G4 TCR | NFAT-eGFP reporter, flow cytometry | peptide | concentration not given, HLA-A*02:01 NY-ESO system | – | reporter activation | 0.15% |
| ILEAAKSIAAATSALVKAASAAQRE | vinculin head domain Vd1 | complex rupture, AFM single-molecule force spectroscopy | peptide | double traces, C-terminal pulling, 800 nm/s | – | rupture force FWHM upper side | 5.02 pN |
| GACAGACAGACA (dsDNA) | Fibroin-modulator-binding protein-1 | ITC | double-stranded DNA, one strand shown | – | – | Kd | 5.42 ± 0.75 µM |
| milbemycin oxime | Saccharomyces cerevisiae | cell growth | Pdr5 deleted, Cdr1 overexpressed | 2^-5.966 µg/mL, together with: fluconazole 1 µg/mL | – | OD600 | 0.971 and 1.01 and 1.02 |
| thimet oligopeptidase | – | co-immunoprecipitation | human RBC membrane | DMTMM crosslinker, unit not given, together with: Band 3 peptide 1-56 bait | reference: negative control | co-IP enrichment | 251000 |
| QLMPFGSLL | HLA class I histocompatibility antigen, A alpha chain, allele A*01:01 (Homo sapiens, UniProt P04439) | conformational ELISA | peptide | concentration not given | reference: positive control peptide, direction not given | binding score | 0.5% |
| GGWVEKETYY | human SCRIB PDZ3-4 tandem (MBP fusion) | automated holdup | peptide, crude extract | concentration not given, corrected by standard peak, unit not given | reference: biotin control resin, higher = stronger binding | binding intensity | 0.0217 |
| FKBP12 | – | co-immunoprecipitation | human RBC membrane | unit not given, together with: Band 3 peptide 1-56 bait | reference: negative control | co-IP enrichment | 0 |
| ALLEWLTTL | Jurkat T cells expressing 1G4 TCR | NFAT-eGFP reporter, fluorescence microscopy | peptide | concentration not given, HLA-A*02:01 NY-ESO system | – | reporter activation | 0.0108% |
| GSGAGKETYY | human MAGI1-2/6 PDZ construct (MBP fusion) | automated holdup | peptide, purified PDZ protein | concentration not given, unit not given | reference: biotin control resin, higher = stronger binding | binding intensity | 0.00264 |
| CTCATACTCT | Salmonella enterica Typhimurium | RNA-seq, refers to: fabF mRNA | peptide, SL1344 | 5 µM, 15 min | reference: water control | log2 fold change | -1.88 |
| CCT4 | – | co-immunoprecipitation | human RBC membrane | unit not given, together with: Band 3 peptide 1-56 bait | reference: negative control | co-IP enrichment | 0 |
| ALMQWVTQV | Jurkat T cells expressing 1G4 TCR | NFAT-eGFP reporter, flow cytometry | peptide | concentration not given, HLA-A*02:01 NY-ESO system | – | reporter activation | 74.2% |
| Polymyxin B | Staphylococcus aureus | DiSC3(5) fluorescence | – | concentration not given, 60 min | higher = more depolarisation | membrane depolarisation | 569 a.u. and 708 a.u. and 509 a.u. |
| GSGAGSETSV | human MAGI1-3/6 PDZ construct (MBP fusion) | automated holdup | peptide, crude extract | concentration not given, uncorrected, unit not given | reference: biotin control resin, higher = stronger binding | binding intensity | 0.129 |
| GLAQWISGA | Jurkat T cells expressing 1G4 TCR | NFAT-eGFP reporter, flow cytometry | peptide | concentration not given, HLA-A*02:01 NY-ESO system | – | reporter activation | 0.3% |
| epoetin alfa | UT7/EPO | RT-qPCR, refers to: OSM | – | concentration not given, 90 min, normalized to HPRT1 | reference: vehicle | mRNA level | 129 fold |
| QGRWDHETIV | human SCRIB PDZ3-4 tandem (MBP fusion) | automated holdup | peptide, purified PDZ protein | concentration not given, unit not given | reference: biotin control resin, higher = stronger binding | binding intensity | 0.409 |

A few entries again:
| Molecule | target or system | test | test system | setting | scale | endpoint | value |
| --- | --- | --- | --- | --- | --- | --- | --- |
| KDECVIATEV | human MAGI1-2/6 PDZ construct (MBP fusion) | automated holdup | peptide, crude extract | concentration not given, uncorrected, unit not given | reference: biotin control resin, higher = stronger binding | binding intensity | 0.0745 |
| GLLEWTDRV | Jurkat T cells expressing 1G4 TCR | NFAT-eGFP reporter, flow cytometry | peptide | concentration not given, HLA-A*02:01 NY-ESO system | – | reporter activation | 0.15% |
| ILEAAKSIAAATSALVKAASAAQRE | vinculin head domain Vd1 | complex rupture, AFM single-molecule force spectroscopy | peptide | double traces, C-terminal pulling, 800 nm/s | – | rupture force FWHM upper side | 5.02 pN |
| GACAGACAGACA (dsDNA) | Fibroin-modulator-binding protein-1 | ITC | double-stranded DNA, one strand shown | – | – | Kd | 5.42 ± 0.75 µM |
| milbemycin oxime | Saccharomyces cerevisiae | cell growth | Pdr5 deleted, Cdr1 overexpressed | 2^-5.966 µg/mL, together with: fluconazole 1 µg/mL | – | OD600 | 0.971 and 1.01 and 1.02 |
| thimet oligopeptidase | – | co-immunoprecipitation | human RBC membrane | DMTMM crosslinker, unit not given, together with: Band 3 peptide 1-56 bait | reference: negative control | co-IP enrichment | 251000 |
